Assay results gathered from unrelated publications.
Each numbered part is a random draw from the data of one study; scales do not carry over between parts. Positions count from the first letter of the parent shown.
UniProt Q94JM3, sequence (whole entry, looked up): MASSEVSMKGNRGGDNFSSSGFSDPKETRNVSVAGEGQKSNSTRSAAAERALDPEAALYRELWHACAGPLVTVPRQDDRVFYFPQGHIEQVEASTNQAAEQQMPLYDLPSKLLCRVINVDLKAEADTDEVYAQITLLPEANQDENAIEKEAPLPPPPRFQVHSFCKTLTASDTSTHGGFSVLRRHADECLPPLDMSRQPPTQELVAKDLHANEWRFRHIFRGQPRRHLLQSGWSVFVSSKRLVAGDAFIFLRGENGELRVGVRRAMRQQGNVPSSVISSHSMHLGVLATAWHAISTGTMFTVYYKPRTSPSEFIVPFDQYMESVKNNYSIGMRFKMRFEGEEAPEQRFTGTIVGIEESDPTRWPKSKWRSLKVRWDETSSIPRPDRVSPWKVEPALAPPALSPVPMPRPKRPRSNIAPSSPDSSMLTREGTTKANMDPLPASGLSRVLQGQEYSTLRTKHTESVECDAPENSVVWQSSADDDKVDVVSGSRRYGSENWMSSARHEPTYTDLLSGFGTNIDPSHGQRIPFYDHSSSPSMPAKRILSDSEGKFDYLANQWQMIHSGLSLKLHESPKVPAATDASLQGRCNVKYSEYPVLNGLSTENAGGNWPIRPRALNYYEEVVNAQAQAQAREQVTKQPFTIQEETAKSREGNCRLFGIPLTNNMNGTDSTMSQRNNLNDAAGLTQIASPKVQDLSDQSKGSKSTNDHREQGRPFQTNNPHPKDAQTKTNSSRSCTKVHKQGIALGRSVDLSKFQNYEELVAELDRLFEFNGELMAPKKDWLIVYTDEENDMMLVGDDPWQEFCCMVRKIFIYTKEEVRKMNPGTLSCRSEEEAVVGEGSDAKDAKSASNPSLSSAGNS
UniProt Q9FGV1, sequence (whole entry, looked up): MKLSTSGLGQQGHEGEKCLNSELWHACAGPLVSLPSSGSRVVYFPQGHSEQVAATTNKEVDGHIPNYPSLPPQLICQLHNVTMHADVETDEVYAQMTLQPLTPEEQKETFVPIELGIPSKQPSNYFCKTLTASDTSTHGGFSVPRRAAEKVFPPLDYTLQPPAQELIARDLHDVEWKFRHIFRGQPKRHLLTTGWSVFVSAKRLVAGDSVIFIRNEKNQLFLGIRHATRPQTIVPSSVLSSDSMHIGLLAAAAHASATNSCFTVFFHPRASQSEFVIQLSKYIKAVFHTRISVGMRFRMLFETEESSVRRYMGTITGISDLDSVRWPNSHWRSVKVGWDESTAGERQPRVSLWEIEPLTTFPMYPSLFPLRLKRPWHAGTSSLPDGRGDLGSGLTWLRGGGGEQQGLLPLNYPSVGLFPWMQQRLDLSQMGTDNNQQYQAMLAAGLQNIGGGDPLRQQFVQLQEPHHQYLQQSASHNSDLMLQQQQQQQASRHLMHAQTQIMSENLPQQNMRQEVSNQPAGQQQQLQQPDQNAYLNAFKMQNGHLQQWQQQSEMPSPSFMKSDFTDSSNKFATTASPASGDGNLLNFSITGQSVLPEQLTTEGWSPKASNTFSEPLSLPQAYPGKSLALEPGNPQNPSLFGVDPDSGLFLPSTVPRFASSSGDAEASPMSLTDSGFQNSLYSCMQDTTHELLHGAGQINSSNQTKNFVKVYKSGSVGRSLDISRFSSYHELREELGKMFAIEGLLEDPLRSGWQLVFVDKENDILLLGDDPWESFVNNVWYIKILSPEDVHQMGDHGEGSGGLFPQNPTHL
UniProt Q9ZTX9, sequence (whole entry, looked up): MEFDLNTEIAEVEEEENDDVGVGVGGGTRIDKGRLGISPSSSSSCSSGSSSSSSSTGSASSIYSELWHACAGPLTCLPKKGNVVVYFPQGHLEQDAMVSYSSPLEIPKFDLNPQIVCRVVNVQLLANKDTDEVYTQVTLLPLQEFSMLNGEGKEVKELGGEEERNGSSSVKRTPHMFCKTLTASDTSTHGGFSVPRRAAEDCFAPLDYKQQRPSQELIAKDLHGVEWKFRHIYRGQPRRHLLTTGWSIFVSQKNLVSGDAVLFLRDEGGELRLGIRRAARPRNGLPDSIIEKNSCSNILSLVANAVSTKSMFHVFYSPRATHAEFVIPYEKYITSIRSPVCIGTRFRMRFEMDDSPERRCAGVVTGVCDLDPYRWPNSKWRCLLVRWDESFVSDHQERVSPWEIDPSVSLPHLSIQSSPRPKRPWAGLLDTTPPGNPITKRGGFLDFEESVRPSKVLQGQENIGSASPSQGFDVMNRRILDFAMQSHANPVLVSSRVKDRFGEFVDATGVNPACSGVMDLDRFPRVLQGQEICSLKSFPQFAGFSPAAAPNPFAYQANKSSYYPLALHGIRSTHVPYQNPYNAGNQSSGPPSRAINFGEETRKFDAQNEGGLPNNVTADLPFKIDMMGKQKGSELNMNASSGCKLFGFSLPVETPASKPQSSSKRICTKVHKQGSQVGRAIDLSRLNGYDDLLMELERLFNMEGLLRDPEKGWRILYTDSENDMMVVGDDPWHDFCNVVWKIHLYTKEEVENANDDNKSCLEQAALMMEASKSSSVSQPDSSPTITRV
UniProt Q9ZTX8, sequence (whole entry, looked up): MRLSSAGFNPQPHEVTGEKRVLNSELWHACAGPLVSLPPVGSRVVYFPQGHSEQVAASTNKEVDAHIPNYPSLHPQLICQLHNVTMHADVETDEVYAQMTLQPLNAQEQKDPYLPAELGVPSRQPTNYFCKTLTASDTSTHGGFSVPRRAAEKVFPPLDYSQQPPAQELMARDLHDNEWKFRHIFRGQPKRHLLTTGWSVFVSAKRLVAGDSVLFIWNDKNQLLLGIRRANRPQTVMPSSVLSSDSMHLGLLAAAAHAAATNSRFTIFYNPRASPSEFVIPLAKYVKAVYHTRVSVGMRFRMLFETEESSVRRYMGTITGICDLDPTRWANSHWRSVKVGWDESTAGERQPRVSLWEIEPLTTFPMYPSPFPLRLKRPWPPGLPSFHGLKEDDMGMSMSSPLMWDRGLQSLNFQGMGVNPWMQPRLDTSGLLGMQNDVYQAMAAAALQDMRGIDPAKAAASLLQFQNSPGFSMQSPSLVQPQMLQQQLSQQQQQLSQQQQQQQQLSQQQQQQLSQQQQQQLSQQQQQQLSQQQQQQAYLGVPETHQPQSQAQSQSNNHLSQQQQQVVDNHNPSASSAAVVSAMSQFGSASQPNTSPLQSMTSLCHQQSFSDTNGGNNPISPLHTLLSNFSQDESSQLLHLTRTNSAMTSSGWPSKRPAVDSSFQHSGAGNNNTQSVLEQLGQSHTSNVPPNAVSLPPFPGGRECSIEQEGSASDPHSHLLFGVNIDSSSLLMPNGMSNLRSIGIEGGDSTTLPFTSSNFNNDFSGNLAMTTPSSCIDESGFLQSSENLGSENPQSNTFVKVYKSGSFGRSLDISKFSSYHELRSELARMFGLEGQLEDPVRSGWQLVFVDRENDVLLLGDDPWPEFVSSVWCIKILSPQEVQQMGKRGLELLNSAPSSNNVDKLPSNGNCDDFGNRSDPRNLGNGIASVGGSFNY
UniProt Q9M1R4, sequence (whole entry, looked up): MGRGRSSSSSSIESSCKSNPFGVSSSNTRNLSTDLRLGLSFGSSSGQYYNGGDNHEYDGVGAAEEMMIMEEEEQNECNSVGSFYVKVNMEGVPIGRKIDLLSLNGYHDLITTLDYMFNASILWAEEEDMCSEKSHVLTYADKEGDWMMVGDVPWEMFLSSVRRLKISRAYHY

Block 1 — method: protein-binding microarray; form: double-stranded DNA, one strand shown; medium: in vitro; tested at: 2540 nM top; setting: 60-bp whole probe; added: salmon DNA 0.4 mg/ml; relative to: random background probes; reading: higher = stronger binding; shared flanks, not repeated: GCCTAGCAC … GTCTTGATTCGCTTGACGCTGCTG
Target: Interferon regulatory factor 3, full length, phosphomimetic (IRF3, Homo sapiens, UniProt Q14653, residues 1-427, S386D/S396D/S398D/S402D/T404D/S405D)
Residues (chain): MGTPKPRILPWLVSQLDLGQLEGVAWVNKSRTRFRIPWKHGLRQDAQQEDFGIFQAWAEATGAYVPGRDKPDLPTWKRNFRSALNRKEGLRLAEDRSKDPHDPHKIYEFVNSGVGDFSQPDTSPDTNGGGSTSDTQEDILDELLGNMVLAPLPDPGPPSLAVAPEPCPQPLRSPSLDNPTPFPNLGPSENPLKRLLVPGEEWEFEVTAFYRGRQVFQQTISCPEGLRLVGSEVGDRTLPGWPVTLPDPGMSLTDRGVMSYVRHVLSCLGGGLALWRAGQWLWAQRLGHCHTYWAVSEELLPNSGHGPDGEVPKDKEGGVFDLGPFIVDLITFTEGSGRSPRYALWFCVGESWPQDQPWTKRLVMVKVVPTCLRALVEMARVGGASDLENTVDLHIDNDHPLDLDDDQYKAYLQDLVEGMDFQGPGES
Sequence | fitted relative affinity [z-score]
TTAGGTCTCATTTTCCTTTAGTGCTAG | 3.56
TTAGATTTCGAGACTGGATTAGTGCTA | 0.85
ATCTTCATGAAATTTTAGTAAGTGCTA | 0.285
TTAGCTTTCGACTATCGGTTAGTGCTA | 0.653
ATTTAGTATTACCTATTTCTGTGCTAG | 1.49
TGGCTTTCCTTTATGTCCTGGTGCTAG | 3.81
TCATGTCAACTTTCTCTGACTGTGCTA | 0.55
TTCATTATTGTCTTCCCCATGTGCTAG | 0.271
TTAGATTTCAGTATCGTTTAGTGCTAG | 2.84
TACTTTCTGAATGCTCCCCCTGTGCTA | 3.59
TGATAAATCTTTGTTGGAGGGGTGCTA | -0.525
GACGATATCAGTATCGAGACGTGCTAG | 1.28
GACCGTATCGGGTATCGGGACGTGCTA | 2.42
GACGGTCTCCTAATGCTGACGTGCTAG | 1.89
GACGATCCCAGTATCGAGACGTGCTAG | 0.941
GACGGTTTCGGTTCCGGGATGTGCTAG | 10.8
TCACAACTCTGTTTTCGACTGTGCTAG | 1.03
TTAGGTACCCTTTTCCTTTAGTGCTAG | 5.14
GACGATATTGGGTTTCGAGACGTGCTA | 0.892

Block 2 — method: RNA Bind-n-Seq; form: RNA; medium: in vitro; tested at: 100 nM; relative to: input RNA pool; reading: higher = stronger binding
Target: RING finger protein unkempt homolog, zinc fingers 1-6, SBP tag (UNK, Homo sapiens, UniProt Q9C0B0, residues 30-357)
UniProt Q9C0B0, sequence (30-357, looked up): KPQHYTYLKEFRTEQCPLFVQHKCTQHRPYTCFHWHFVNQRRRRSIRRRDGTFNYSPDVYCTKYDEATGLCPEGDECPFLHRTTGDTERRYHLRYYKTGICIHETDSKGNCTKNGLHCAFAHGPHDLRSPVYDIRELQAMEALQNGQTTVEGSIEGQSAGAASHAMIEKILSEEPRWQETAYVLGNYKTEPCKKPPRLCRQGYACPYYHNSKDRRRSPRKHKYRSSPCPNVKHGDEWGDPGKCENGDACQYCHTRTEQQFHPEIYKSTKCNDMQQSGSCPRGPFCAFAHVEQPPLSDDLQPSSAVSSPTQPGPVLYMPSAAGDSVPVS
Setting: RNA with constant flanks, vertebrate orthologous sites, ends assumed
Shared flanks, not repeated: GGGAGUUCUACAGUCCGACGAUC … CAACAGAGGAUUGAGCAUCA
Sequence | bound/input enrichment
GCACAUGCCGCUAUCACCAAAAGCAAAGUGCCAUUUUUCAAAUUUCAUUCAGAGCCGUUCUAGUGUUUCCUAUUCCCUGCCCUUCCCAUUACUUUCAGUGAUGAAAGUUCUCCUCUGACA | 1.61 ratio
AUUAGCUGCCUCUGAUCAGGGGACACCAAACGGAGCAAGGAGUAAAAUUGCUGCCAUGUGCACAAUGGCUACACCACAGUCCCUCUUCUGUGUAAAACCAGCUGUGUGUAAGUGUUGAGG | 0.239 ratio
AAAUUUAUUUCAUGCCAUGGACUCCAUAUCGGACGGAUACUUUGAUAGAAUAUGCUUCUUUGGAGGAUUUCCAAAAUAGCCGCCAAACGACAACAUAUAAACUUCCCAAUCGAGUGGAUG | 0.645 ratio
UUUAUUGAUCAGGUCUGUAAAAUGUGUACUGAAAAAAUCAGAGUUUAUUUAUAAACAGAAUAGUUUAUUUAAACAGAAAGUCUUUCCUCAUUGGUAUUGUGGUAUGCAUUAAUUCCAUUU | 0.102 ratio
UCCUAAUAUUUAAUUUGCUCAUUUCAAAAUAUUACUUACCUAACCUUAGGUAAUUCAAUCUACAGUUUUCAAUGGUAGUAUAUUGACAGUUUUCACCUAAGUCCUCUCAUAAAGAGGACG | 0.561 ratio
GUACCACCUGUGCAGAUUUCCCAACACUGAAUGCAAAGUAGCAAUUUUCAUAGCCACAGUAAGGUAGCUUUAGGGCACUGUUGCCAUGGUUUUAUUCAUGUGCAAGUUUUGAAUAUGUAU | 1.19 ratio
GGACCAUACAUAUACAAUGUGUAUCAAAUGCUGGUUGUAAAAUUAAACCAUCAUCUAGAAUAGAGUUAAUUUGUUAUAAUCAAGUUACAAAUAGGUUUUCUUAAACCAGAGAUGCACCGC | 0.502 ratio
AUGAUUUUUUUUCUUAUUAUUAUUAUGUUUUUUUCCUUGCUGAAGUAUGCUAUACCAAAACAGUGCGUGGUUACCAUGAAUUAAUCUGUUAUGGAUGUUGCUCUAGUGACAUGCGGUUCU | 0.859 ratio
ACAGGAGCAGCAUAGGCUGUUUGAGCUUUGGAGAAACGAGCUUUGCUUUUUAUAUUUAACUAGGAUACUUUUACGUGAUGGGUGCUUUGAGUGUGAAUGCAGCAGGCUCUUGUUUCCGAG | 0.925 ratio
CAGCUGAUUCACUCAUUGGGAGAGCUGCACAUAUAGCUGUUCUGGAUUCGGAAAUAUUUUUAGAGAAAUUCUUUCUGGUUGCUGCCCUCAAAUAUUUCCAUUAGGAUUAAAUGCAUUGGU | 1.36 ratio
UGCAUUAUUUGACCAGAGUUGAAGUGACAGAAUUUGAAGAUAUUAAAUCAGGUUACAGAAUAGAUUUUUAUUUUGAUGAAAAUCCUUACUUUGAAAAUAAAGUUAUCUCCAAAGAAUUUC | 0.203 ratio

Block 3 — method: two-hybrid; relative to: out of 4 tests; reading: higher = firmer interaction
Molecule: IAA27 (Arabidopsis thaliana, UniProt Q9ZSY8)
UniProt Q9ZSY8, sequence (whole entry, looked up): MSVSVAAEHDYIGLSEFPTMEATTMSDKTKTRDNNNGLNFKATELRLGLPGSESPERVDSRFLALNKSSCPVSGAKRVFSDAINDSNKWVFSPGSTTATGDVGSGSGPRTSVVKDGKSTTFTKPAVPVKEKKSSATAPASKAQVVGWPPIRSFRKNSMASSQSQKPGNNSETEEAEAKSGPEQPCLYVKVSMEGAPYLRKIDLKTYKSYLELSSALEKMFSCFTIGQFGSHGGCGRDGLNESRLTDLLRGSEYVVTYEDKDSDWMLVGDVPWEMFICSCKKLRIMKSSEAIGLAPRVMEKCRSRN
partner | setting | positive tests
IAA30 (Arabidopsis thaliana, UniProt Q9M1R4) | weak activation fusion | 2
ARF4 660-788 (Arabidopsis thaliana, UniProt Q9ZTX9) | – | 0
ARF6 790-935 (Arabidopsis thaliana, UniProt Q9ZTX8) | – | 4
ARF8 699-811 (Arabidopsis thaliana, UniProt Q9FGV1) | – | 2
ARF2 727-859 (Arabidopsis thaliana, UniProt Q94JM3) | – | 0

Block 4 — method: protein binding microarray; form: double-stranded DNA, one strand shown; medium: in vitro; tested at: not given; relative to: not given; reading: higher = stronger binding
Target: Histone acetyltransferase KAT6A, winged helix 1, GST fusion (KAT6A, Homo sapiens, UniProt Q92794, residues 1-85)
Setting: 8-mer, flanks averaged, mean of 2 arrays, mostly near background
Target sequence (chain): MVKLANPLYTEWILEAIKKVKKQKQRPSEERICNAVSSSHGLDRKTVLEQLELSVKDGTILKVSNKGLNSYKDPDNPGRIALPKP
Sequence | E-score
CCCCTTAC | 0.117
AGTTACAT | -0.0973
CTACTTCA | -0.178
CTGCAAGA | 0.119
GAGTCGGA | 0.0806
AGGAGCTC | -0.164
GAAAAGTC | -0.136
ATGGTTTA | -0.0184
GAAGTGTC | -0.284
CAGGCACC | -0.117
ACCCTCGA | -0.143
CATGATCG | -0.118
GTCTTCAC | 0.0521
GTTCCCGA | 0.209
ATGTGGTG | -0.104
CCCGCAAG | 0.208
AATTTGCC | -0.128
ATAGTCTC | 0.0147
GTACTGCA | -0.0533
CCCCGCAA | 0.259
AGTTTCGC | -0.0729
CATGTTGA | -0.0324
CATTCCCA | -0.115
CGTTGCCA | -0.041
AATTACCA | -0.0938

Block 5 — method: DHFR PCA, deep sequencing; medium: yeast; added: (+)-ABA 1.4 µM; relative to: wild-type fitted maximum; reading: higher = stronger binding
Target: ABI1, truncated, D143A, DHFR fusion (Arabidopsis thaliana)
Setting: methotrexate growth selection, single substitutions
Starting sequence: PYL1, truncated, DHFR fusion (Arabidopsis thaliana); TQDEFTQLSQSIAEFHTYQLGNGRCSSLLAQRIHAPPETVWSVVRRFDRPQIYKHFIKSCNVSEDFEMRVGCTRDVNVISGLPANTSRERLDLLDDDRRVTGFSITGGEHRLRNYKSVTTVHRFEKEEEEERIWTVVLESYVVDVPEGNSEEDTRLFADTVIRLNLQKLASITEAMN
Substitution | relative binding score [%]
R46M | 16.1
V136P | 4.8
T73I | 67.8
R46H | 3.56
V136G | -0.404
S27C | 10.6
R32C | 42.5
R155T | 40.7
R24Y | 2.98
E131M | 62.8
I172M | 15.5
V43W | -3.07
V76Y | 6.35
Q10S | 80.8
K54D | -5.19
T160Y | 32.1
T106C | 38.5
V40I | -19.5
S150G | 9.5
H122M | 1.1
V121R | -5.1
T106G | -3.53
Y18H | 63.1
R24P | -6.82
V161Y | 5.96

Block 6 — target: CCNA2, cyclin fold, Cln2 fusion (human); method: yeast growth competition, sequencing; medium: yeast; setting: strong parent motif; relative to: not given; reading: higher = stronger binding
Starting sequence: CDC6 docking peptide (human); TLKGRRLVFDNQL; partner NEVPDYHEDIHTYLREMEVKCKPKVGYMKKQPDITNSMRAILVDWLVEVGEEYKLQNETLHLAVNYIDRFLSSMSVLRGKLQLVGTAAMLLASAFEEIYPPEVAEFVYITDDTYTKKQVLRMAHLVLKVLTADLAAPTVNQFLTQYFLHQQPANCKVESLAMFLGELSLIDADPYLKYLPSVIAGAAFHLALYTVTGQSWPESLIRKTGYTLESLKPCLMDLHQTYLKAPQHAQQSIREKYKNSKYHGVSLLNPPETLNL
Substitution | normalised enrichment score
D10C | 2.4
L7E | 0.637
N11R | 2.34
L13I | 2.34
L13N | 2.8
L2A | 1.8
N11T | 3.19
D10P | 1.43
T1Y | 2.67
L7C | -0.424
L7V | 0.958
V8E | 3.18
D10H | 1.75
L13E | 3.22
L13D | 2.98
T1N | 3.03
R6D | -0.515
G4C | 3.51
K3T | 2.34
L2N | 1.7
R6G | -0.00303
N11Q | 2.99
L2M | 2.39
K3F | 1.98
K3Y | 2.06

A few entries again (block 4):
Sequence | E-score
CTGCAAGA | 0.119
GTCTTCAC | 0.0521
CATGTTGA | -0.0324
CCCCTTAC | 0.117
ACCCTCGA | -0.143
CAGGCACC | -0.117
CTACTTCA | -0.178
AGTTTCGC | -0.0729
ATGGTTTA | -0.0184
CATGATCG | -0.118
AATTACCA | -0.0938
AATTTGCC | -0.128
